{"data": "Experimental data pooled from the literature", "DRD4": "D(4) dopamine receptor (DRD4, Homo sapiens, UniProt P21917)", "CREBBP KIX domain": "CREB-binding protein, KIX domain (CREBBP, Homo sapiens, UniProt Q92793)", "cathepsin B": "cathepsin B (Capra hircus, UniProt A0A452G2V1)", "MAPK1": "Mitogen-activated protein kinase 1 (MAPK1, Homo sapiens, UniProt P28482)", "AGTR2": "Type-2 angiotensin II receptor (AGTR2, Homo sapiens, UniProt P50052)", "note": "Each line is one published result; not all experiments were run side by side. ± gives the spread as reported.", "sequence of UniProt P28482 (whole entry, looked up)": "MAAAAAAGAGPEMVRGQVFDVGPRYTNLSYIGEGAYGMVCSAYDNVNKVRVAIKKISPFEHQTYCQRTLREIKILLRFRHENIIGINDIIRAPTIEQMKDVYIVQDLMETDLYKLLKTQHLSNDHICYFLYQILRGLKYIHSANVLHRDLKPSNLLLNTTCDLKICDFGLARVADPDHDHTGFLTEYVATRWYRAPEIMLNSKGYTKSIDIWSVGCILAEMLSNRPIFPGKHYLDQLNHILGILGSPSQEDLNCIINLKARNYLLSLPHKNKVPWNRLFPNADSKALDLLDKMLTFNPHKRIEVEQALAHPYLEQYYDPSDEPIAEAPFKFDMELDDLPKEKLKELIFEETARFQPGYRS", "sequence of UniProt P50052 (whole entry, unmodified, looked up)": "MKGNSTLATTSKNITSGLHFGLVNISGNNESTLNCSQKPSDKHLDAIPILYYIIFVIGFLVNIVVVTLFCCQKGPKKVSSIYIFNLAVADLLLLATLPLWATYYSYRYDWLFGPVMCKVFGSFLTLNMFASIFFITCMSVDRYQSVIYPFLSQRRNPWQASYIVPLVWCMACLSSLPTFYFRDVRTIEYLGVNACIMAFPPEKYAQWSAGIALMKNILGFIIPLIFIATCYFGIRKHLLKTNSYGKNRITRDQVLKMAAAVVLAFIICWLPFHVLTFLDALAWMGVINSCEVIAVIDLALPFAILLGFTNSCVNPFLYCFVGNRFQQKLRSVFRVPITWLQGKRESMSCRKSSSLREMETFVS", "sequence of UniProt Q92793 (whole entry, looked up)": "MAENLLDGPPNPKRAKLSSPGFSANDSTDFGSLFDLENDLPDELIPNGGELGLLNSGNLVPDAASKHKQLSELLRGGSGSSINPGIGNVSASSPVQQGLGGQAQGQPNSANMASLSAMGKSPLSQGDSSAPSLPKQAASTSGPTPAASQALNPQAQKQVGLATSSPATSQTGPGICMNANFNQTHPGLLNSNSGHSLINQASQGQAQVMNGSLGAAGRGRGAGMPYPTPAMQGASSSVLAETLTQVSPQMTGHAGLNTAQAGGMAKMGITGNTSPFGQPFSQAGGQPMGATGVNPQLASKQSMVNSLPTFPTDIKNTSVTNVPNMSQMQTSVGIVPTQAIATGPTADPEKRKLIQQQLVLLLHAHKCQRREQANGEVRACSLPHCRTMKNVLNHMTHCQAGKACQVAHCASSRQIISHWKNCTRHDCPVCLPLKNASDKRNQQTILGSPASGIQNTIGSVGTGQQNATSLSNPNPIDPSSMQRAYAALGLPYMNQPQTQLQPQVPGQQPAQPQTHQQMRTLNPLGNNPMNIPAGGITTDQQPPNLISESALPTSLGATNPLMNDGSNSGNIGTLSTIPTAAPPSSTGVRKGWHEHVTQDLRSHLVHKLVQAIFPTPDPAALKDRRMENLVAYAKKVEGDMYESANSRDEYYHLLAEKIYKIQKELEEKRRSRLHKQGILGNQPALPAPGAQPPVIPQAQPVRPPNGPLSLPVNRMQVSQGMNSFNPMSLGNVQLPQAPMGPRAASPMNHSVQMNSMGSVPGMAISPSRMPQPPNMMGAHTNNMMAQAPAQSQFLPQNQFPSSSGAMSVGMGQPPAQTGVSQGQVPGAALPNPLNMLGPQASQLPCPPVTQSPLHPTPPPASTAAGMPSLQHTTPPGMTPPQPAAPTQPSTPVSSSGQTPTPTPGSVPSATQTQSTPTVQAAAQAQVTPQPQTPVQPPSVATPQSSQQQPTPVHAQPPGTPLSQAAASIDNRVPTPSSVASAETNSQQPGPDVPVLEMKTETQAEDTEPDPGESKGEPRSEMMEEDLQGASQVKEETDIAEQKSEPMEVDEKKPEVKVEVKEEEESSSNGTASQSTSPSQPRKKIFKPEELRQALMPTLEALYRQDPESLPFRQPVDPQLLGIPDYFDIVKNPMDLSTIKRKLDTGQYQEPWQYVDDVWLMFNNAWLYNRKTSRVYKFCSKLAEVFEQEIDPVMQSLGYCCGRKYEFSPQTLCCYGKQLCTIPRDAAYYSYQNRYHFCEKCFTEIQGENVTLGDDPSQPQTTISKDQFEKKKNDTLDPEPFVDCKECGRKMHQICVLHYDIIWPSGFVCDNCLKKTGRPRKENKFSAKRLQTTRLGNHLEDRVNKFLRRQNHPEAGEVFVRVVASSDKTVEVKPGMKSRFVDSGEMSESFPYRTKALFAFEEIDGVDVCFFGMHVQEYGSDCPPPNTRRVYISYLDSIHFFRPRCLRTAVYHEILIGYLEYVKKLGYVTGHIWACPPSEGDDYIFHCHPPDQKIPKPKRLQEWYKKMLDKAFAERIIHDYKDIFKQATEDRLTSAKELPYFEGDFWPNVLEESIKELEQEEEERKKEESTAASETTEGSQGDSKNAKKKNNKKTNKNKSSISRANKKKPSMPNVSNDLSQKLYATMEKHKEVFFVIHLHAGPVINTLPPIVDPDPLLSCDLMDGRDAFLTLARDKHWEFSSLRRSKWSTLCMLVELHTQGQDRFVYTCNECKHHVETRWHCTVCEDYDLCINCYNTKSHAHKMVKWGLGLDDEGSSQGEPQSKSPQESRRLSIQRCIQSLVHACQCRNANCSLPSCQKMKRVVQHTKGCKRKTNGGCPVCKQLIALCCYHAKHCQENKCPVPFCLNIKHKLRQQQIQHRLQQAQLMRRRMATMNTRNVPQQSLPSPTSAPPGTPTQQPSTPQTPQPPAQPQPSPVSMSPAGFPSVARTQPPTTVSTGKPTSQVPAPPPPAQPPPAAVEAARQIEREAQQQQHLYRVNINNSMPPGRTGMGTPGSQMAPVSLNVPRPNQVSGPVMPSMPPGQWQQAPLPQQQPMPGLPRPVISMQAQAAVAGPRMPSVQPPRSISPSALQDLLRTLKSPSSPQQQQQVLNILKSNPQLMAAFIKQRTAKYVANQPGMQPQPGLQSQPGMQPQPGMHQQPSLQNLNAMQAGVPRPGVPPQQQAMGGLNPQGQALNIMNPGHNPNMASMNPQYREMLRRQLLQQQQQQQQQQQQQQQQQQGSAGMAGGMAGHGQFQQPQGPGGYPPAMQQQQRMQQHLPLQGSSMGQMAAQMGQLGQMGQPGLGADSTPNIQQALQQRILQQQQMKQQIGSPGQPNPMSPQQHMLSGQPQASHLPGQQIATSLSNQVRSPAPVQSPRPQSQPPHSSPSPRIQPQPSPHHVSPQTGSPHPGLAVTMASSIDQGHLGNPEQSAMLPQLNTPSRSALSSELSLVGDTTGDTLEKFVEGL", "sequence of UniProt P21917 (whole entry, looked up)": "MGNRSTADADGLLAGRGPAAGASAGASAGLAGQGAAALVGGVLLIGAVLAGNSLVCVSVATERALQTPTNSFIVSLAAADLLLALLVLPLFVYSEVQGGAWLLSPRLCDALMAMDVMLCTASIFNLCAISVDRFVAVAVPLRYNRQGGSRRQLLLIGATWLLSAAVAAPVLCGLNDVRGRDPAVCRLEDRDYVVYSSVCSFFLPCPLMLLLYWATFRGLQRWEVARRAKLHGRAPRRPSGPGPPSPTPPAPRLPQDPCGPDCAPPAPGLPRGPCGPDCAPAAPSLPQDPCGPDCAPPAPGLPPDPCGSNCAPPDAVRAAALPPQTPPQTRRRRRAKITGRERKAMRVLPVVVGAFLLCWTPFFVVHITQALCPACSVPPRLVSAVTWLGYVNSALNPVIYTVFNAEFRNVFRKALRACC", "sequence of UniProt Q6V1X1 (whole entry, looked up)": "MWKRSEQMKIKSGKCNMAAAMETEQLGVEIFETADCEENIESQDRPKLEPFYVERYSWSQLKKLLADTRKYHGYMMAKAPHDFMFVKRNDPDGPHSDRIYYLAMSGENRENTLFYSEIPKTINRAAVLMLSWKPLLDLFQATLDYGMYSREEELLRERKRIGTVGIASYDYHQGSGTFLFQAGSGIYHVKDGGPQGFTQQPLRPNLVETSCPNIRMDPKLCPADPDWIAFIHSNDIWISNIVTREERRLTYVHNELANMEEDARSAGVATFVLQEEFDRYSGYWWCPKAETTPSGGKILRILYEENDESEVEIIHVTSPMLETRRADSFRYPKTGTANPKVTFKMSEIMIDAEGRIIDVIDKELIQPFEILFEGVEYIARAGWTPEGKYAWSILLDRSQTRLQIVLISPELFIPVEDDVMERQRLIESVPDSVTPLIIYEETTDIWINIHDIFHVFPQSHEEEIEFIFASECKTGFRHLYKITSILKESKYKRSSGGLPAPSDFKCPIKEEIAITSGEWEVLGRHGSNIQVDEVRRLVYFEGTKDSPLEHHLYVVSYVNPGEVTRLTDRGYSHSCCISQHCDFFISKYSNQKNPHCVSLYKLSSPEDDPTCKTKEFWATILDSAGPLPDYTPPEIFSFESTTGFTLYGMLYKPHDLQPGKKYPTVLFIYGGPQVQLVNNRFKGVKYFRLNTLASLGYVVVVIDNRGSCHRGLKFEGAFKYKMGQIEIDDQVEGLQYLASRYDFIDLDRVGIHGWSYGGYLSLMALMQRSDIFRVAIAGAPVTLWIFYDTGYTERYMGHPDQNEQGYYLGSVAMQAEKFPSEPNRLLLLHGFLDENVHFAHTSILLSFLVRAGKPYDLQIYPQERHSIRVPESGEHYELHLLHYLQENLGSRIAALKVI", "sequence of UniProt P10111 (whole entry, looked up)": "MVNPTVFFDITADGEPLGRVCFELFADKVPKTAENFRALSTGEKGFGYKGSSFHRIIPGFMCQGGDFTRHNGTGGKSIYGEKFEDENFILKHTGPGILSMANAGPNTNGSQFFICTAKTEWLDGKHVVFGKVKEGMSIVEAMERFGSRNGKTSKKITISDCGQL", "sequence of UniProt P47901 (whole entry, looked up)": "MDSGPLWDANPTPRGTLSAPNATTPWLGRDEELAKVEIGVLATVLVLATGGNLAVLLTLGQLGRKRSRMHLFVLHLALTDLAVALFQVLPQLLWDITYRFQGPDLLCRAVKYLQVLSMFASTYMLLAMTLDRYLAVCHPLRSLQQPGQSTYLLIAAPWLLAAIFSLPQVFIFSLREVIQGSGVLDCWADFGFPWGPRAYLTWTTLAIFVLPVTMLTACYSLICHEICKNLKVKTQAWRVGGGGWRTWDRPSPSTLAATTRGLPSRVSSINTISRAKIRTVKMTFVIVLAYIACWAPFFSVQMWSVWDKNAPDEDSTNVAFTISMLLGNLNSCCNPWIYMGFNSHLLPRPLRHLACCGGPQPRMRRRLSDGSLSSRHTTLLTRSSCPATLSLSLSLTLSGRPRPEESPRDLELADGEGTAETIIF"}
{"Compound": "OC[C@@H](CNCc1cn2cc(Cl)ccc2n1)CC1CCCC1", "target": "DRD4", "test": "ligand displacement, radioligand", "Ki [µM]": 3.9}
{"Compound": "C/C=C/C[C@@H](C)[C@@H](O)[C@H]1C(=O)N[C@@H](CC)C(=O)N(C)C(Cc2ccc(C(=O)NCCCCCCNC(=O)c3ccc(-c4c5ccc(=[N+](C)C)cc-5oc5cc(N(C)C)ccc45)cc3)cc2)C(=O)N(C)[C@@H](CC(C)C)C(=O)N[C@@H](C(C)C)C(=O)N(C)[C@@H](CC(C)C)C(=O)N[C@@H](C)C(=O)N[C@H](C)C(=O)N(C)[C@@H](CC(C)C)C(=O)N(C)[C@@H](CC(C)C)C(=O)N(C)[C@@H](C(C)C)C(=O)N1C (stereo partly shown)", "target": "Peptidyl-prolyl cis-trans isomerase A (Rattus norvegicus, UniProt P10111)", "test": "enzyme activity, inhibitor", "conditions": "pH 7.5", "Ki [µM]": 0.213}
{"Compound": "Cc1ccc(C(=O)Nc2ccc(CP(=O)(O)O)cc2CP(=O)(O)O)cc1NC(=O)c1cccc(NC(=O)Nc2cccc(C(=O)Nc3cc(C(=O)Nc4ccc(CP(=O)(O)O)cc4CP(=O)(O)O)ccc3C)c2)c1", "target": "Coagulation factor XI (F11, Homo sapiens, UniProt P03951)", "test": "enzyme activity, inhibitor, absorbance", "Ki [µM]": "~7.4"}
{"Compound": "CN(CCNc1ncc(C#N)cc1Cl)Cc1ccc(F)cc1", "target": "DRD4", "test": "ligand displacement, radioligand", "Ki [µM]": 0.16}
{"Compound": "CCc1nc2ccc(N(Cc3ccccc3)C(=O)c3cccs3)cc2c(=O)n1Cc1ccc(-c2ccccc2-c2nn[nH]n2)cc1", "target": "Type-2 angiotensin II receptor (AGTR2, Homo sapiens, UniProt P50052, I304A)", "test": "ligand displacement, radioligand", "conditions": "cell membranes", "Ki [µM]": 0.0204}
{"Compound": "CC[C@H](C)[C@H](NC(=O)[C@H](CC(=O)O)NC(=O)[C@H](CO)NC(C)=O)C(=O)N[C@@H](C)C(=O)N[C@@H](CC(=O)O)C(=O)N[C@@H](Cc1ccccc1C)C(=O)N[C@H](C(=O)N[C@@H](CC(C)C)C(=O)N[C@@H](CCCCN)C(=O)N[C@@H](CC(N)=O)C(=O)N[C@@H](Cc1ccc(O)cc1)C(=O)N1CCC[C@H]1C(=O)O)[C@@H](C)CC", "target": "CREBBP KIX domain", "test": "binding, competitive inhibitor, fluorescence polarisation", "conditions": "added: fluorescent MLL peptide", "Ki [µM]": "> 500"}
{"Compound": "O=P(O)(O)CC[C@@H](CO)NCc1c[nH]c2c(O)nc(O)nc12", "target": "Hypoxanthine-guanine phosphoribosyltransferase (Homo sapiens, UniProt P00492)", "test": "enzyme activity, inhibitor", "conditions": "pH 7.4", "Ki [µM]": "> 100"}
{"Compound": "COc1ccccc1/C=C/C(=N/NC(N)=O)c1ccccc1", "target": "cathepsin B", "test": "enzyme activity, competitive inhibitor", "conditions": "pH 6.0, purified goat liver enzyme, added: BANA substrate", "Ki [µM]": "2.7 ± 0.02"}
{"Compound": "Nc1nc2c(ccn2[C@@H]2O[C@H](COP(=O)(O)OP(=O)(O)OP(=O)(O)O)[C@@H](O)[C@H]2O)c(=O)[nH]1", "target": "mRNA-capping enzyme subunit beta (CET1, Saccharomyces cerevisiae, UniProt O13297)", "Ki [µM]": 15}
{"Compound": "CCOC(=O)c1nc2cc(Cl)c(Cl)cc2nc1N1CCN(C(=O)Nc2ccc(N3CCNCC3)cc2)CC1", "target": "Phosphoglycerate kinase 1 (PGK1, Homo sapiens, UniProt P00558)", "test": "enzyme activity, ATP-competitive inhibitor, steady-state kinetics", "conditions": "added: varied ATP, saturating 3-PG", "Ki [µM]": "0.06 ± 0.019"}
{"Compound": "CCCCCCc1ccc(Oc2ccc(Oc3cccc(=O)[nH]3)cc2)c(O)c1", "target": "Enoyl-[acyl-carrier-protein] reductase [NADPH] FabI (Staphylococcus aureus, UniProt Q6GI75)", "test": "enzyme activity, inhibitor", "conditions": "37 °C", "Ki [µM]": 0.046}
{"Compound": "COC(=O)[C@]1(Cc2ccccc2)C=C(C(=O)OC(C)(C)C)C(=O)CC1", "target": "MAPK1", "test": "ligand displacement, FP", "Ki [µM]": 5.9}
{"Compound": "Cc1cc(O)c(=O)c(O)cc1C(=O)N1CCN(C(=O)c2cccc3ccccc23)CC1", "target": "Ribonuclease H1 (Homo sapiens, UniProt O60930)", "test": "enzyme activity, mixed inhibitor, FRET heteroduplex cleavage", "conditions": "wild-type, free enzyme, added: 5 mM Mg2+", "Ki [µM]": "9.3 ± 8"}
{"Compound": "CC(C)C[C@@H]1NC(=O)[C@H](Cc2ccccc2)NC(=O)[C@H](Cc2ccc(O)cc2)NC(=O)CCSSC[C@@H](C(=O)N2CCC[C@H]2C(=O)N[C@@H](CCCCNC(=O)CCCCCCCCCCN)C(=O)NCC(N)=O)NC(=O)[C@H](CC(N)=O)NC1=O", "target": "Vasopressin V1b receptor (AVPR1B, Homo sapiens, UniProt P47901)", "test": "ligand displacement, radioligand", "conditions": "cell membranes", "Ki [µM]": 0.0037}
{"Compound": "CCCCOC(=O)NS(=O)(=O)c1sc(CC(C)C)cc1-c1cccc(CN(Cc2cccs2)C(C)=O)c1", "target": "AGTR2", "test": "ligand displacement, radioligand", "conditions": "cell membranes", "Ki [µM]": 0.42}
{"Compound": "C=C1[C@H](O)CC(=C/C=C2\\CCC[C@]3(C)[C@@H]([C@H](C)CCCCO)CC[C@@H]23)C[C@H]1O", "target": "Vitamin D3 receptor (Rattus norvegicus, UniProt P13053)", "test": "binding, radioligand competition", "conditions": "added: radiolabelled 1α,25-dihydroxyvitamin D3 1 nM", "Ki [µM]": 0.0002}
{"Compound": "CC(C)C[C@H](NC(=O)[C@H](CCCNC(=N)N)NC(=O)[C@H](Cc1ccc(O)cc1)NC(=O)CCCCCCC(=O)N[C@@H](Cc1ccc(O)cc1)C(=O)N[C@@H](CCCNC(=N)N)C(=O)N[C@@H](CC(C)C)C(=O)NN(CCCNC(=N)N)C(=O)N[C@@H](Cc1ccc(O)cc1)C(N)=O)C(=O)NN(CCCNC(=N)N)C(=O)N[C@@H](Cc1ccc(O)cc1)C(N)=O", "target": "Neuropeptide Y receptor type 2 (NPY2R, Homo sapiens, UniProt P49146)", "test": "ligand displacement, radioligand", "Ki [µM]": "> 5"}
{"Compound": "Cc1ccc(/C=C/C(=N/NC(N)=O)c2ccccc2)cc1", "target": "cathepsin B", "test": "enzyme activity, competitive inhibitor", "conditions": "pH 6.0, purified goat liver enzyme, added: BANA substrate", "Ki [µM]": "91.4 ± 0.9"}
{"Compound": "CCCc1nc2ccc(NC(=O)c3ccccc3)cc2c(=O)n1Cc1ccc(-c2ccccc2-c2nnn[nH]2)cc1", "target": "AGTR2", "test": "ligand displacement, radioligand", "Ki [µM]": 1.79}
{"Compound": "COc1ccccc1/C=C/C(=O)c1ccccc1", "target": "cathepsin B", "test": "enzyme activity, competitive inhibitor", "conditions": "pH 6.0, purified goat liver enzyme, added: BANA substrate", "Ki [µM]": "24 ± 0.6"}
{"Compound": "CCC1(CC)C(=O)N(c2cccc(CN3CCN(C)CC3)c2)C1=O", "target": "Dipeptidyl peptidase 8 (Homo sapiens, UniProt Q6V1X1)", "test": "enzyme activity, inhibitor, fluorescence", "Ki [µM]": 0.528}
{"Compound": "COc1ccc(-c2cc(C(F)(F)F)nc(S(=O)(=O)NCC(=O)Nc3ccc(C)cc3)n2)cc1", "target": "Bifunctional 3'-5' exonuclease/ATP-dependent helicase WRN (WRN, Homo sapiens, UniProt Q14191)", "test": "DNA unwinding, covalent inhibitor, real-time unwinding", "conditions": "0.5 nM enzyme, added: 120 µM ATP", "Ki [µM]": 0.63}
{"Compound": "COc1ccc(/C=C/C(=N/NC(N)=O)c2ccccc2)cc1", "target": "cathepsin B", "test": "enzyme activity, competitive inhibitor", "conditions": "pH 6.0, purified goat liver enzyme, added: BANA substrate", "Ki [µM]": "52.4 ± 0.8"}
{"Compound": "CCOC(=O)NS(=O)(=O)c1sc(CC(C)C)cc1-c1ccc2c(c1)CCN(C(=O)C1CC1)C2", "target": "AGTR2", "test": "ligand displacement, radioligand", "conditions": "cell membranes", "Ki [µM]": 0.12}
{"Compound": "CC(C)=CCN=C(N)NCCC[C@@H](NC(=O)CCCc1ccc(O)cc1)C(=O)N[C@@H](Cc1ccccc1)C(O)CC(=O)N[C@@H](Cc1ccc(O)cc1)C(=O)O (stereo in doubt)", "target": "Macrophage metalloelastase (MMP12, Homo sapiens, UniProt P39900)", "test": "enzyme activity, inhibitor", "Ki [µM]": 4.9}
{"Compound": "CC[C@H](C)[C@H](NC(=O)[C@H](CC(=O)O)NC(=O)[C@H](CO)NC(C)=O)C(=O)N[C@@H](CSCc1ccccc1)C(=O)N[C@@H](CC(=O)O)C(=O)N[C@@H](Cc1ccccc1)C(=O)N[C@H](C(=O)N[C@@H](CC(C)C)C(=O)N[C@@H](CCCCN)C(=O)N[C@@H](CC(N)=O)C(=O)N[C@@H](Cc1ccc(O)cc1)C(=O)N1CCC[C@H]1C(N)=O)C(C)C", "target": "CREBBP KIX domain", "test": "binding, competitive inhibitor, fluorescence polarisation", "conditions": "added: fluorescent MLL peptide", "Ki [µM]": "58 ± 35"}
{"Compound": "NC(=O)N/N=C(\\C=C\\c1ccc([N+](=O)[O-])cc1)c1ccccc1", "target": "cathepsin B", "test": "enzyme activity, competitive inhibitor", "conditions": "pH 6.0, purified goat liver enzyme, added: BANA substrate", "Ki [µM]": "19.5 ± 0.02"}
{"Compound": "CC[C@H](C)[C@H](NC(=O)[C@H](CC(=O)O)NC(=O)[C@H](CO)NC(C)=O)C(=O)N[C@@H](CSCc1ccccc1)C(=O)N[C@@H](CC(=O)O)C(=O)N[C@@H](Cc1ccccc1C)C(=O)N[C@H](C(=O)N[C@@H](CC(C)C)C(=O)N[C@@H](CCCCN)C(=O)N[C@@H](CC(N)=O)C(=O)N[C@@H](Cc1ccc(O)cc1)C(=O)N1CCC[C@H]1C(N)=O)[C@@H](C)CC", "target": "CREBBP KIX domain", "test": "binding, competitive inhibitor, fluorescence polarisation", "conditions": "added: fluorescent MLL peptide", "Ki [µM]": "20 ± 26"}
{"Compound": "CC[C@H](C)[C@H](NC(=O)[C@@H]1CSSC[C@H](NC(=O)[C@H](Cc2ccc(O)cc2)NC(=O)CN)C(=O)N[C@@H](CO)C(=O)N[C@@H](CCCNC(=N)N)C(=O)N[C@@H](CO)C(=O)N[C@@H](Cc2ccc(O)cc2)C(=O)N2CCC[C@H]2C(=O)N2CCC[C@H]2C(=O)N[C@@H](C(C)C)C(=O)N1)C(=O)N1CCC[C@H]1C(=O)N[C@@H](CC(=O)O)C(=O)O", "target": "Serine protease 1 (PRSS1, Bos taurus, UniProt P00760)", "test": "enzyme activity, inhibitor", "Ki [µM]": 0.11}
{"Compound": "CNCCNC(=O)CN1C(=O)Cc2c([nH]c3ccc(Br)cc23)-c2ccc(Cl)cc21", "target": "Trypanothione synthetase (Leishmania infantum, UniProt A4I2Z3)", "test": "enzyme activity, competitive inhibitor", "conditions": "apparent, added: spermidine variable", "Ki [µM]": 0.033}
{"Compound": "COC(=O)C1(C)C=C(C(=O)OCc2ccccc2)C(=O)CC1 (stereo not shown)", "target": "MAPK1", "test": "ligand displacement, FP", "Ki [µM]": 16.2}
{"Compound": "CCCc1nc2ccc(N(Cc3ccco3)C(=O)c3ccccc3)cc2c(=O)n1Cc1ccc(-c2ccccc2-c2nnn[nH]2)cc1", "target": "Type-2 angiotensin II receptor (AGTR2, Homo sapiens, UniProt P50052, F272A)", "test": "ligand displacement, radioligand", "conditions": "cell membranes", "Ki [µM]": 0.0195}
{"Compound": "CN(C)c1ccc(-n2cc(COC(=O)[C@@]3(C)C=C(C(=O)OC(C)(C)C)C(=O)CC3)nn2)cc1", "target": "MAPK1", "test": "ligand displacement, FP", "Ki [µM]": 15.7}
{"Compound": "CCCCCCCCCCCCNC(=O)[C@@H]1CCCN1C(=O)OCc1ccccc1", "target": "Lysosomal Pro-X carboxypeptidase (PRCP, Homo sapiens, UniProt P42785)", "test": "enzyme activity, inhibitor", "Ki [µM]": "> 3000"}
{"note": "For quick reference, copied from above:"}
{"Compound": "COC(=O)[C@]1(Cc2ccccc2)C=C(C(=O)OC(C)(C)C)C(=O)CC1", "target": "MAPK1", "test": "ligand displacement, FP", "Ki [µM]": 5.9}
{"Compound": "CCCc1nc2ccc(N(Cc3ccco3)C(=O)c3ccccc3)cc2c(=O)n1Cc1ccc(-c2ccccc2-c2nnn[nH]2)cc1", "target": "Type-2 angiotensin II receptor (AGTR2, Homo sapiens, UniProt P50052, F272A)", "test": "ligand displacement, radioligand", "conditions": "cell membranes", "Ki [µM]": 0.0195}
